Measurements gathered from unrelated publications.
Lines come from different studies, so protocols differ. Values joined by “and” are separate records of one study, mostly repeats; a detail may differ. ± marks the error that the study gave.
CASP7: Caspase-7 (CASP7, Homo sapiens, UniProt P55210)
Chain of UniProt P55210 (whole entry, looked up): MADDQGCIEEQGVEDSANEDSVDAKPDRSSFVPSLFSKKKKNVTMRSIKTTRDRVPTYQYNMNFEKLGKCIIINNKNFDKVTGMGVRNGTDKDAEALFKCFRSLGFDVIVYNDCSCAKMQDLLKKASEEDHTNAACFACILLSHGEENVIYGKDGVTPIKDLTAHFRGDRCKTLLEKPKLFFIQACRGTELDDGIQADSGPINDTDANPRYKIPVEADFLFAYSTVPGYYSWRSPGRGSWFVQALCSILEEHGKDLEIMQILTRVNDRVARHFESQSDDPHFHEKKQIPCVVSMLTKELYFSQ
T1: G-quadruplex DNA (Homo sapiens); GGGAGGTAGGTGG
Chain of UniProt P09936 (whole entry, looked up): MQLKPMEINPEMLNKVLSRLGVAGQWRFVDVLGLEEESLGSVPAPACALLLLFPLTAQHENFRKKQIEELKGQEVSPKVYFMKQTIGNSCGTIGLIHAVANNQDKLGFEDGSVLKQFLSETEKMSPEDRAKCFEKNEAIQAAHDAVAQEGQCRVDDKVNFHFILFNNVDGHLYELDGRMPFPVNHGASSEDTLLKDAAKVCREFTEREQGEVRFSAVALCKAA
Chain of UniProt Q9HBA0 (whole entry, looked up): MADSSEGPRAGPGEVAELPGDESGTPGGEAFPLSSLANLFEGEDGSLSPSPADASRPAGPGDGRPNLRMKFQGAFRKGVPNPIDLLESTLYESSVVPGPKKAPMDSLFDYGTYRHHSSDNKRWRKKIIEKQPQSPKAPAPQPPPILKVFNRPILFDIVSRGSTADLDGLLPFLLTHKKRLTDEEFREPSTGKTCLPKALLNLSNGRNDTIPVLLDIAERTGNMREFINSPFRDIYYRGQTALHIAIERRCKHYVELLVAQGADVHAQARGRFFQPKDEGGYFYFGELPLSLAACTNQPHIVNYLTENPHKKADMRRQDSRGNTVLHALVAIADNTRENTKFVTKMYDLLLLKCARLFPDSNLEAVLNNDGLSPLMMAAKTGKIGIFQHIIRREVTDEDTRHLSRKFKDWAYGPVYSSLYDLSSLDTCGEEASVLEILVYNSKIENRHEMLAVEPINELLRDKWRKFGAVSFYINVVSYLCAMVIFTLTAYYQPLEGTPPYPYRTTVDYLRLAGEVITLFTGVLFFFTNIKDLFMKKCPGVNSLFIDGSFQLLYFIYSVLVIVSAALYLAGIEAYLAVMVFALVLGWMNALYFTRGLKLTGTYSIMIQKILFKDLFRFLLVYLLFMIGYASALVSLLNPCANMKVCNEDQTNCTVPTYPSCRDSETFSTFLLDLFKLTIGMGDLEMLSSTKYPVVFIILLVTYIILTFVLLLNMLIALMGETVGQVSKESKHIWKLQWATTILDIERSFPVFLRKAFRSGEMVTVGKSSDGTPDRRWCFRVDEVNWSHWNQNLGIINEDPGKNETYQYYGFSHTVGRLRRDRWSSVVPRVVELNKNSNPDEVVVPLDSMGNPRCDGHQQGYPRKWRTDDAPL
Chain of UniProt P34972 (whole entry, looked up): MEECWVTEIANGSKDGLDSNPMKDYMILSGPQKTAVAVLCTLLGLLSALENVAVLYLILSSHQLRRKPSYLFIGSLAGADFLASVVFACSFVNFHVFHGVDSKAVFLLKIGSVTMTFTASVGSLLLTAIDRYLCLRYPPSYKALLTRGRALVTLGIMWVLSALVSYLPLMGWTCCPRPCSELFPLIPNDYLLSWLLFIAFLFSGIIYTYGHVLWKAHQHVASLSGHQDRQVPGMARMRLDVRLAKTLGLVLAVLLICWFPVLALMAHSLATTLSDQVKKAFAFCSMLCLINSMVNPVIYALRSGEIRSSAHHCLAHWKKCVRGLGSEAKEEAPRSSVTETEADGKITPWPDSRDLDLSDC
Chain of UniProt P19491 (whole entry, looked up): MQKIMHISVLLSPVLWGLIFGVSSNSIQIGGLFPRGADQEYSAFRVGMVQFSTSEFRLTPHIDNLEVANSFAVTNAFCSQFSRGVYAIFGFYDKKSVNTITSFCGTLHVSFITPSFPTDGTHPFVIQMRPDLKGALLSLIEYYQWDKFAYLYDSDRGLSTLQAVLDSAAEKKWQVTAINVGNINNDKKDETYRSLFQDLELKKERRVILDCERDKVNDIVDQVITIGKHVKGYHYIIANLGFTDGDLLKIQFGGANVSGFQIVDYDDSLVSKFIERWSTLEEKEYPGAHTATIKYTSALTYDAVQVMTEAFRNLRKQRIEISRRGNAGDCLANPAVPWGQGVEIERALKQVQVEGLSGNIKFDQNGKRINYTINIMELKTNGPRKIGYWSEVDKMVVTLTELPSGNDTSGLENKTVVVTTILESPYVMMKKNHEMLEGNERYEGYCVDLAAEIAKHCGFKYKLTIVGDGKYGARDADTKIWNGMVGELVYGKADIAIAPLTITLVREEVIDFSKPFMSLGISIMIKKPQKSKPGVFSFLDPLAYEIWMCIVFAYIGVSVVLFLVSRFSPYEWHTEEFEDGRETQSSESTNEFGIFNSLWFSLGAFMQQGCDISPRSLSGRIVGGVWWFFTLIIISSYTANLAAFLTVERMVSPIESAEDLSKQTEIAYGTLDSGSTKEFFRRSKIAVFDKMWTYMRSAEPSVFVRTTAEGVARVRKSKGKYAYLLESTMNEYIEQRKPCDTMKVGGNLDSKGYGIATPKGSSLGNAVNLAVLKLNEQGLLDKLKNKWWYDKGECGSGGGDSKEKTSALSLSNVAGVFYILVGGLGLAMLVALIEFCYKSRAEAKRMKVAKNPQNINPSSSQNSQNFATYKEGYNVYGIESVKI
Chain of UniProt P00921 (whole entry, looked up): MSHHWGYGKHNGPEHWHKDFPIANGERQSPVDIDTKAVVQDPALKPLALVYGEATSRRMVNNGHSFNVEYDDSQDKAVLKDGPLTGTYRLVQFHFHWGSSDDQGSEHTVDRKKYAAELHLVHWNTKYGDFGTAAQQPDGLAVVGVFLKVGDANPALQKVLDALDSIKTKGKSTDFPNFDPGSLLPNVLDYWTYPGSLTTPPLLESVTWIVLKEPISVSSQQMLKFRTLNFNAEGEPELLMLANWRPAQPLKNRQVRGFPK
Chain of UniProt P48643 (whole entry, looked up): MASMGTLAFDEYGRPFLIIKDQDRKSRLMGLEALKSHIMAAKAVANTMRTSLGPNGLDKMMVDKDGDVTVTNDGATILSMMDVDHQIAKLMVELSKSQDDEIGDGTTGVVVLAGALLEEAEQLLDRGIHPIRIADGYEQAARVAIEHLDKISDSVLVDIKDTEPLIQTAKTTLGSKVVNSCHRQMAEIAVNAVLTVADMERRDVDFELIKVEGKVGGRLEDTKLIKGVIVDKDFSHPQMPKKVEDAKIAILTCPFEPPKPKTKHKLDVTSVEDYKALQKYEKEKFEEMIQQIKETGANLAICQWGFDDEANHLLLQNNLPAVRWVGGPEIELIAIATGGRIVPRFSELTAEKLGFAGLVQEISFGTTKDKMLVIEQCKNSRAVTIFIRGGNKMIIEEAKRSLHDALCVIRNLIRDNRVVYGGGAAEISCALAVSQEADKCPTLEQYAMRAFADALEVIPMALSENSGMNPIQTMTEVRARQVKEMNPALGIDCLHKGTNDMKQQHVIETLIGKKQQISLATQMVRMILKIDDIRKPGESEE
Chain of UniProt P61106 (whole entry, looked up): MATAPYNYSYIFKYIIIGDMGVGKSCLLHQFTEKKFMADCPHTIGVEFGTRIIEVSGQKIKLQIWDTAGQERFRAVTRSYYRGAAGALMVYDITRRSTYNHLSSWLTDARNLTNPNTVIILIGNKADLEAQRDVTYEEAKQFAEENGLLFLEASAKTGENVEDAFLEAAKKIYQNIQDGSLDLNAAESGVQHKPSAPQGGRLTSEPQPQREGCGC
Chain of UniProt Q704Y3 (whole entry, unmodified, looked up): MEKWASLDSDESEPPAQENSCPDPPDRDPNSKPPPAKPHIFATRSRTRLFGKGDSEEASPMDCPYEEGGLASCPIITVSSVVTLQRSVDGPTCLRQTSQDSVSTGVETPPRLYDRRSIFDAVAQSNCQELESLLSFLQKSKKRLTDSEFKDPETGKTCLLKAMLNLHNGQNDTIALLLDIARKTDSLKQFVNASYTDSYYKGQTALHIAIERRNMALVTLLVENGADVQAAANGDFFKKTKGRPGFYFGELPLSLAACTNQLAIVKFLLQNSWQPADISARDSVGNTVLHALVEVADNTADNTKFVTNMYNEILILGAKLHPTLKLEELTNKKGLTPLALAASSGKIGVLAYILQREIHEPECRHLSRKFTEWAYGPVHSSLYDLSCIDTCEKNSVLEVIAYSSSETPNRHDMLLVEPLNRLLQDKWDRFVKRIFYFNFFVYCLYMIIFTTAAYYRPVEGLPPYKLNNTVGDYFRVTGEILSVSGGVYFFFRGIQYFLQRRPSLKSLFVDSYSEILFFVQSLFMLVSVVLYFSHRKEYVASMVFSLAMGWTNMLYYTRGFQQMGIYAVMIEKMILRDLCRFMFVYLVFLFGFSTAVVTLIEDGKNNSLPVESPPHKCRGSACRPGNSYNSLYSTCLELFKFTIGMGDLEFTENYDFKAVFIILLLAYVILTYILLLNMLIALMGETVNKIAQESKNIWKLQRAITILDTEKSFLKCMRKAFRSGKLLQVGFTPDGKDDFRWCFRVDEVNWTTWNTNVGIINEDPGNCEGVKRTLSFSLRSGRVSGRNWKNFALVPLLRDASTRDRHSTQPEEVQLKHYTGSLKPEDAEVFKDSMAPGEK

Under “number of kinases hit”, `Cc1ccc(-n2cc(CNC(=O)c3cncc(Br)c3)nn2)cc1` is recorded as 0 (human kinase panel; binding, KINOMEscan; 10000 nM, %Ctrl below 10).
The ΔTm of `COc1cc(-c2cn(C)c(=O)c3cnccc23)cc(OC)c1CN(C)C` is reported as -0.3 °C (PHIP, BD2 (Homo sapiens, UniProt Q8WWQ0)).
`CN(C)c1ccc2c3c(cccc13)C(=O)N(CCc1ccc(S(N)(=O)=O)cc1)C2=O` has an emission maximum of 536 nm (CA2 (Bos taurus, UniProt P00921); binding).
`Cc1ncsc1-c1ccc(C(C)NC(=O)C2CC(O)CN2C(=O)C(NC(=O)CCCCCCCCCCN2CCCC(Nc3ncc(Cl)c(Nc4ccccc4S(=O)(=O)C(C)C)n3)C2)C(C)(C)C)cc1` (centres unmarked): “log2 fold change” -1.32 (22Rv1; RNA-seq, measured: PAFAH2 mRNA; concentration not given; reference: DMSO).
For `CCCCCCCC/C=C\CCCCCCCC(=O)NCCO`, “maximal open probability” read 0.7 ± 0.09 (Trpv1 (Mus musculus, UniProt Q704Y3, S513T); ion current, agonist, whole-cell patch clamp; S513T; reference: 3 mM 2-APB).
`O=C(O)Cc1cc2c(cc1C(=O)c1cccc(I)c1)OCO2` has a current amplitude of 345 ± 29 pA (Gria2 (Rattus norvegicus, UniProt P19491); glutamate-evoked current, whole-cell patch clamp; HEK-293T; concentration not given).
With `CCOC(=O)[C@H](Cc1ccc(OC)cc1)NC(=O)c1ccc(C2CC2)c(Cc2ccc(F)cc2)n1` the Ki ratio was 18 (CNR2 (Homo sapiens, UniProt P34972); radioligand binding; reference: CB1 over CB2 (human)).
The kinact/KI of `CC(=O)N[C@@H](CC(=O)O)C(=O)N[C@@H](CC(C)C)C(=O)N[C@@H](C)C(=O)N[C@@H](CC(=O)O)C(=O)COC(=O)c1c(C)cccc1C` is reported as 170000 M⁻¹ s⁻¹ (CASP7; enzyme activity, inhibitor).
`COC1CN([C@H]2CC[C@H]([C@@]3(C)Oc4c(Cl)cc(C(=O)NCc5c(SC)cc(C)[nH]c5=O)c(C)c4O3)CC2)C1`: “log2 fold change” 1.6 (RNA-seq, measured: FBXO2; human, whole blood; dose not given, 24 h; reference: pretreatment baseline).
With `CC(=O)N[C@@H](Cc1c[nH]c2ccccc12)C(=O)N[C@@H](CCCNC(=N)N)C(=O)N[C@@H](CO)C(=O)N[C@@H](CC(=O)O)C(=O)COC(=O)c1c(C)cccc1C` the kinact/KI was 300 M⁻¹ s⁻¹ (CASP7; enzyme activity, inhibitor).
`C=CC(=O)N1CCCC(n2c(=O)c3ncccc3n(Cc3ccc(Oc4ccccc4)cc3)c2=O)C1` (centres unmarked) — result for “melting temperature shift”: -3.29 (CCT5 (Homo sapiens, UniProt P48643); thermal proteome profiling; cell proteome; unit not given; reference: vehicle).
`CN(C)c1ccc(C2=C/C(=C/C=C/c3sc4ccccc4[n+]3C)c3ccccc3O2)cc1` — result for binding: “binds” (T1, G-quadruplex DNA (Homo sapiens); fluorescence turn-on).
With `N#CN1CC[C@H](C(=O)Nc2nc3c(s2)CN(C(=O)Cn2cc(CNC(=O)CCCC[C@@H]4SC[C@@H]5NC(=O)N[C@@H]54)nn2)CC3)C1` the iBAQ abundance was 1.59e+09 and 3.37e+09 and 1.65e+09 (UCHL1 (Homo sapiens, UniProt P09936); probe binding, affinity probe, neutravidin pull-down LC-MS/MS; HEK293T, cell lysate; 5 µM, 1 h, single replicate, unit not given; higher = more pulled down).
`Cc1cc(C)cc(COc2cc3c(cc2OCc2cc(C)cc(C)c2)C2CC(O)(Cc4cn(CCOCCOCCNC(=O)CCCCC5SCC6NC(=O)NC65)nn4)CC(C)N2CC3)c1` (centres unmarked) gave an SILAC ratio of 2.98 (RAB14 (Homo sapiens, UniProt P61106); biotinylated probe pull-down; 10 µM probe; reference: heavy over light).
For `C/C1=C\CC/C(C)=C/CC(C)(C)/C=C/C1`, the remaining current was 4 ± 3% (TRPV4 (Homo sapiens, UniProt Q9HBA0); inhibitor, outside-out patch clamp; 100 µM, 5 min, added: GSK1016790A 1 µM).
`CCOC(=O)c1cnc(NCc2cccc(NC(=O)c3cc(-c4ccccc4)n(-c4ccccc4)n3)c2)nc1` gave an inhibition of 91% (Genome polyprotein, NS2B-NS3 protease (dengue virus type 2, UniProt P29990); enzyme activity, fluorogenic AMC substrate; 50 µM).
For `CCCCCC=CC=C1C(=O)C=CC1CC=CCCCC(=O)O` (centres unmarked), “isoTOP-ABPP competition ratio” read 3.7 (Cleavage stimulation factor subunit 2 (CSTF2, Homo sapiens, UniProt P33240); competitive isoTOP-ABPP, measured: CSTF2 cysteine peptide; Ramos soluble proteome; 100 µM, added: iodoacetamide probe; reference: DMSO over compound-treated, higher = stronger cysteine blockade).

Some of these lines once more:
`Cc1ncsc1-c1ccc(C(C)NC(=O)C2CC(O)CN2C(=O)C(NC(=O)CCCCCCCCCCN2CCCC(Nc3ncc(Cl)c(Nc4ccccc4S(=O)(=O)C(C)C)n3)C2)C(C)(C)C)cc1` (centres unmarked): “log2 fold change” -1.32 (22Rv1; RNA-seq, measured: PAFAH2 mRNA; concentration not given; reference: DMSO).
For `CCCCCCCC/C=C\CCCCCCCC(=O)NCCO`, “maximal open probability” read 0.7 ± 0.09 (Trpv1 (Mus musculus, UniProt Q704Y3, S513T); ion current, agonist, whole-cell patch clamp; S513T; reference: 3 mM 2-APB).
